Measurements collected from several papers.
Parts stem from different laboratories: compare values within a part only. Changes are numbered by the printed parent chain.

Set 1
Target: CCNE1, cyclin fold, Cln2 fusion (human)
Technique: yeast growth competition, sequencing
Sample: yeast
Notes: weak parent motif
Reference: not given
Direction: higher = stronger binding
Starting sequence: CDC42EP1 docking peptide (human); SLVVGKLSFDSSP
Change	normalised enrichment score
L7A	-0.11
K6A	0.323
S8A	0.156
D10A	0.296
S12A	0.177
V4A	0.177

Set 2
Target: Interferon regulatory factor 7, full length, phosphomimetic (IRF7, Homo sapiens, UniProt Q92985, residues 1-503, S471D/S472D/S475D/S476D/S477D/S483D/S484D/S487D)
Technique: protein-binding microarray
Molecule type: double-stranded DNA, one strand shown
Sample: in vitro
Tested at: 2200 nM top
Notes: 60-bp whole probe
Added: salmon DNA 0.4 mg/ml
Reference: random background probes
Direction: higher = stronger binding
All sequences stand within: GCCTAGCAC … GTCTTGATTCGCTTGACGCTGCTG
Construct (chain): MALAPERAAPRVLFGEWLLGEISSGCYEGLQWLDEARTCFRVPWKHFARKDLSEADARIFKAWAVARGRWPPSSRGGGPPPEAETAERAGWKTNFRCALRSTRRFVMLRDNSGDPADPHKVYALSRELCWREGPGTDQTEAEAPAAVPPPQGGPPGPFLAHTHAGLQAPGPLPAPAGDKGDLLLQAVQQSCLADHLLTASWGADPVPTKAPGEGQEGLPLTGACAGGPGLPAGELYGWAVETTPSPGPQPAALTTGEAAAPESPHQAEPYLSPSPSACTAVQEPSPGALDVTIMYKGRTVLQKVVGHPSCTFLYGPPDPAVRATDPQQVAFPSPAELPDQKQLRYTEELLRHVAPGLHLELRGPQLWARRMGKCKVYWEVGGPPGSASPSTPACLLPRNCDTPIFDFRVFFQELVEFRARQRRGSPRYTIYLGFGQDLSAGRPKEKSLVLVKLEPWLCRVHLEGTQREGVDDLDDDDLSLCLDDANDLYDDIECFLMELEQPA
Strand	fitted relative affinity [z-score]
TTAGAATTGGGGTTTCGATTAGTGCTA	2.58
AACATACTCGTTTACATTTTGTGCTAG	1.78
GACGGACTGCCTATCCTGACGTGCTAG	0.164
GACGGTATCGGTTTCGGGCCGTGCTAG	2.98
GACGAGCTGGGGACTGGAGACGTGCTA	-0.742
TTAGGTCTCGGTCTCGATTAGTGCTAG	0.541
TCATTTATCAATCATTTTACTGTGCTA	1.21
TTAGGTTTAGGACTGGGTTAGTGCTAG	-0.133
GACGGTATCAGACTGGGGACGTGCTAG	-0.309
GACGATTTCGGTTTCGAGACGTGCTAG	9.91
CTTTCTTTGCTTCACCCTGGGTGCTAG	1.19
TTAGGTTACCTTATCCTTTAGTGCTAG	0.759
TTAGGACTGGACTGTCGGTTAGTGCTA	-0.428
GACGATTTCGGTACTGGAGACGTGCTA	2.59
ATAGATATCAGTTTCGATTAGTGCTAG	5.96

Set 3
Target: Sal-like protein 4, full length isoform A (SALL4, Homo sapiens, UniProt Q9UJQ4, residues 1-1053)
UniProt Q9UJQ4, sequence (whole entry, looked up): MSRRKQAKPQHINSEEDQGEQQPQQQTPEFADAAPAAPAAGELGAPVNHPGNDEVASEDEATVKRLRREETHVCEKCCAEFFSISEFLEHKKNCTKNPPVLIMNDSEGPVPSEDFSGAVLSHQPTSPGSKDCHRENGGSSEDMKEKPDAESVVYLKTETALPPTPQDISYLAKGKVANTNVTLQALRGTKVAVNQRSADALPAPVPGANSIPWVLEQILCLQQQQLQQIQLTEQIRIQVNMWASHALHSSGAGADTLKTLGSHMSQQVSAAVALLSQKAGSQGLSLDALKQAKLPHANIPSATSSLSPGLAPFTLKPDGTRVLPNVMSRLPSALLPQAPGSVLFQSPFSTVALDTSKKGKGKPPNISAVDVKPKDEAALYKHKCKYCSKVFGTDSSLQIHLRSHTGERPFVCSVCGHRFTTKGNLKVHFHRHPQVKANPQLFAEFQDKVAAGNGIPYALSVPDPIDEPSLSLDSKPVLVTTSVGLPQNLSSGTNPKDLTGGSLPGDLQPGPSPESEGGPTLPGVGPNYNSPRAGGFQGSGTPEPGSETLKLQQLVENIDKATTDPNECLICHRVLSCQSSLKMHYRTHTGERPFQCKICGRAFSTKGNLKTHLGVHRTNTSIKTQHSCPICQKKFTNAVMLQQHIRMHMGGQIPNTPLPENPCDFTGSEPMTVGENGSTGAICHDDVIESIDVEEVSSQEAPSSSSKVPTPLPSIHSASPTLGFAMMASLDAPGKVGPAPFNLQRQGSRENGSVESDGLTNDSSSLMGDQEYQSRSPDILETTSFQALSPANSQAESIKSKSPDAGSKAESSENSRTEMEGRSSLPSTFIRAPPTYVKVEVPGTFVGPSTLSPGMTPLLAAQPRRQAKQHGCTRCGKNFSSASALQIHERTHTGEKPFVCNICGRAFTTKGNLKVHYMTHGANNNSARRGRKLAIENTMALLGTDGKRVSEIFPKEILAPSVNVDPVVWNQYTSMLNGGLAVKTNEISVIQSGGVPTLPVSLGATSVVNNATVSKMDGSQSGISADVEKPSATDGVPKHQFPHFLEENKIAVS
Technique: universal PBM
Molecule type: double-stranded DNA, one strand shown
Sample: in vitro
Tested at: 600 nM
Notes: 8-mer, flanks averaged, mean of replicates
Direction: higher = stronger binding
Strand	E-score
GAACGGAA	-0.151
ATGAGGGG	-0.123
GACCAATC	-0.0385
ACGTCGTA	-0.0886
ACTACGAG	0.000785
ATTCTGTG	0.159
CGGGTGTA	-0.154
AAAGCTAG	0.0657
CTTGCTGA	-0.129
GTTCTATA	0.242
CCTAAGCA	-0.104
CGCACTTC	-0.229
AAGGCAAG	-0.0839
AAGCTGGG	-0.151

Mixed results
Molecule	target	assay	test system	conditions	scale	quantity	value
PhoQ, residues 284 288 289 292 302 303 NLGVHL	PhoP, residues 12 14 15 18 19 AGCRL (Escherichia coli, UniProt P23836)	Sort-seq, item: YFP reporter	E. coli	PhoQ-PhoP variant library, added: 10 µM Mg2+	reference: high Mg2+ state, higher = stronger signaling	fold induction	0.937

Repeated from above (set 1):
Change	normalised enrichment score
L7A	-0.11
K6A	0.323
S8A	0.156
D10A	0.296
S12A	0.177
V4A	0.177
